Measurements of several laboratories.
Each line is one published result; not all experiments were run side by side.
EPHB4: Ephrin type-B receptor 4 (EPHB4, Homo sapiens, UniProt P54760)
Sequence of UniProt P54760 (whole entry, looked up): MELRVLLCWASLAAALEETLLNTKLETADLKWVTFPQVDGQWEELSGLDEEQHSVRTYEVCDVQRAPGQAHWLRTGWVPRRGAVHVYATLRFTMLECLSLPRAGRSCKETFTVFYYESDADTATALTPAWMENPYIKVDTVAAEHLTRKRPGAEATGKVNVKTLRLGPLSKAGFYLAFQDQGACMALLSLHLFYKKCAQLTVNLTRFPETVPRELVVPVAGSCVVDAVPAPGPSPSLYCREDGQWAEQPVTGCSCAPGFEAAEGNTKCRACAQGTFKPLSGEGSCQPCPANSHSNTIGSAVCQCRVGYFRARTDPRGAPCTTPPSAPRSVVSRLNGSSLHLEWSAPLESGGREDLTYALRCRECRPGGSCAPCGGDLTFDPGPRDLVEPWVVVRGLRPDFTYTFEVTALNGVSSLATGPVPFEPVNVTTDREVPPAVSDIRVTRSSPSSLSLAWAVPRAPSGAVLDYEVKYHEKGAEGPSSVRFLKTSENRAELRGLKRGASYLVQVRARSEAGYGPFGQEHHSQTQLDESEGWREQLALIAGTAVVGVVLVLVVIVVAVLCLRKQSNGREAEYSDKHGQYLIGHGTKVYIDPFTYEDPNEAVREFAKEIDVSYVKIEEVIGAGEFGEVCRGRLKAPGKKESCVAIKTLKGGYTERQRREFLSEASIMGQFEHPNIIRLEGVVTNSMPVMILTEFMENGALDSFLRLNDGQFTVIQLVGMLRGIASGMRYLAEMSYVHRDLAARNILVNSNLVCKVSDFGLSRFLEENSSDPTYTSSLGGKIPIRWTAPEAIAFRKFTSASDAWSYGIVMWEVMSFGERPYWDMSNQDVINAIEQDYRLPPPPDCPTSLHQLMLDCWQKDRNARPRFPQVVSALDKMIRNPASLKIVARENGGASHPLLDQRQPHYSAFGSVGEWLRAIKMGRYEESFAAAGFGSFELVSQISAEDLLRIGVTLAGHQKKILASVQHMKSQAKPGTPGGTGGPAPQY
CSNK1A1: Casein kinase I isoform alpha (CSNK1A1, Homo sapiens, UniProt P48729)
Sequence of UniProt P48729 (whole entry, looked up): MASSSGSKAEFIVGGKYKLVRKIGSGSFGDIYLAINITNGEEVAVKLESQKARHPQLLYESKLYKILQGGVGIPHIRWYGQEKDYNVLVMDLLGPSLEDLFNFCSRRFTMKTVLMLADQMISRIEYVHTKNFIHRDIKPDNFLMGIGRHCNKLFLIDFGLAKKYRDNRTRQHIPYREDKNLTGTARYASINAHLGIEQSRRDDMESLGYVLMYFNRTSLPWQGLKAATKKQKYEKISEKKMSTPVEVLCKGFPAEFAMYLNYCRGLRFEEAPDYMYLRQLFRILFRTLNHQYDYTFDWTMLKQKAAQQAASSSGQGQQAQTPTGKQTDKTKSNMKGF
MPO: Myeloperoxidase (MPO, Homo sapiens, UniProt P05164)
Sequence of UniProt P05164 (whole entry, looked up): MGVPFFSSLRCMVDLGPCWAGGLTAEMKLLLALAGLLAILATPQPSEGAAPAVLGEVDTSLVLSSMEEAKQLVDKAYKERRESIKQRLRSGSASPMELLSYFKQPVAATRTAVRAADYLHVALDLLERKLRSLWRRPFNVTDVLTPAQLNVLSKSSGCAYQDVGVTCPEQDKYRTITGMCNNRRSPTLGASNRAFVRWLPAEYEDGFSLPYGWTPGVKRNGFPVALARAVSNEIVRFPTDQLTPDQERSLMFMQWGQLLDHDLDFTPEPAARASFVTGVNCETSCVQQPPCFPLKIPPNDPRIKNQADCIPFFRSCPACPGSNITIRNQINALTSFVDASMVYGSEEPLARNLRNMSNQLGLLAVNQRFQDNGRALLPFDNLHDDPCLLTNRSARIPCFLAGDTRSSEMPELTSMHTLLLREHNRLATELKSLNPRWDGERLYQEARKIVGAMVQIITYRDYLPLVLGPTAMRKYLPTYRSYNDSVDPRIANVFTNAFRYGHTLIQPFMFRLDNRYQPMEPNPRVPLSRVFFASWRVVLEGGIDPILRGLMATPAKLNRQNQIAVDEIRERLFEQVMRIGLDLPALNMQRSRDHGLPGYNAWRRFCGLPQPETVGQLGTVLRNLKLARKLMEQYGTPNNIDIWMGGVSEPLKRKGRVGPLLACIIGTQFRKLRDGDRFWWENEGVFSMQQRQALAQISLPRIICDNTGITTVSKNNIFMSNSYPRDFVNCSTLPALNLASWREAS
TAOK1: Serine/threonine-protein kinase TAO1 (TAOK1, Homo sapiens, UniProt Q7L7X3)
Sequence of UniProt Q7L7X3 (whole entry, looked up): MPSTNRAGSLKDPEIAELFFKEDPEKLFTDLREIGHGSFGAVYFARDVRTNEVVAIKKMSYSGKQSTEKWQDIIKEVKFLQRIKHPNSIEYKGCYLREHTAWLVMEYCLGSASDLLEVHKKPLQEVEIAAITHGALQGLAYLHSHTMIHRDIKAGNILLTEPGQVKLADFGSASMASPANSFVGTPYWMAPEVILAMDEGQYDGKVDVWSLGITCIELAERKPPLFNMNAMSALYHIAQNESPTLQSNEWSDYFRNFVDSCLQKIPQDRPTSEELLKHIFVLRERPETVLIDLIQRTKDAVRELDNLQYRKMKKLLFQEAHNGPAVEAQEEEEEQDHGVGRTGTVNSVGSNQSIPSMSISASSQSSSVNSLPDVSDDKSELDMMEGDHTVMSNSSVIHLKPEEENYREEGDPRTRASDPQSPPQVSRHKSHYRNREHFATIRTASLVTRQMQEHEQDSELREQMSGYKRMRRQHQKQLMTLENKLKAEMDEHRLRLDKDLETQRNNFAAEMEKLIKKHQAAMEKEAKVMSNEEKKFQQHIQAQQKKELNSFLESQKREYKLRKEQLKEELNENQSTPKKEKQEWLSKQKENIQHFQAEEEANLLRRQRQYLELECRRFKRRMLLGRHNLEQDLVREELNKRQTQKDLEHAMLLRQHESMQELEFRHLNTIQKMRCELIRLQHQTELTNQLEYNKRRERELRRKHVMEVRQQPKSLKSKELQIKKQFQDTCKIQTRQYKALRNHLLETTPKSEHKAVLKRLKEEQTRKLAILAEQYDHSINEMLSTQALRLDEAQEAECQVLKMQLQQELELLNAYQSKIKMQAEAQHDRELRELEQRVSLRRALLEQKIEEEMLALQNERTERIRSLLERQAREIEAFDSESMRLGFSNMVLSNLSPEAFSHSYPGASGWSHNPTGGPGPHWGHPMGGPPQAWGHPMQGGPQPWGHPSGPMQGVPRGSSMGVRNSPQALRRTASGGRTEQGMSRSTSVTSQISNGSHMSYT
KDM4B: Lysine-specific demethylase 4B (KDM4B, Homo sapiens, UniProt O94953)
Sequence of UniProt O94953 (whole entry, looked up): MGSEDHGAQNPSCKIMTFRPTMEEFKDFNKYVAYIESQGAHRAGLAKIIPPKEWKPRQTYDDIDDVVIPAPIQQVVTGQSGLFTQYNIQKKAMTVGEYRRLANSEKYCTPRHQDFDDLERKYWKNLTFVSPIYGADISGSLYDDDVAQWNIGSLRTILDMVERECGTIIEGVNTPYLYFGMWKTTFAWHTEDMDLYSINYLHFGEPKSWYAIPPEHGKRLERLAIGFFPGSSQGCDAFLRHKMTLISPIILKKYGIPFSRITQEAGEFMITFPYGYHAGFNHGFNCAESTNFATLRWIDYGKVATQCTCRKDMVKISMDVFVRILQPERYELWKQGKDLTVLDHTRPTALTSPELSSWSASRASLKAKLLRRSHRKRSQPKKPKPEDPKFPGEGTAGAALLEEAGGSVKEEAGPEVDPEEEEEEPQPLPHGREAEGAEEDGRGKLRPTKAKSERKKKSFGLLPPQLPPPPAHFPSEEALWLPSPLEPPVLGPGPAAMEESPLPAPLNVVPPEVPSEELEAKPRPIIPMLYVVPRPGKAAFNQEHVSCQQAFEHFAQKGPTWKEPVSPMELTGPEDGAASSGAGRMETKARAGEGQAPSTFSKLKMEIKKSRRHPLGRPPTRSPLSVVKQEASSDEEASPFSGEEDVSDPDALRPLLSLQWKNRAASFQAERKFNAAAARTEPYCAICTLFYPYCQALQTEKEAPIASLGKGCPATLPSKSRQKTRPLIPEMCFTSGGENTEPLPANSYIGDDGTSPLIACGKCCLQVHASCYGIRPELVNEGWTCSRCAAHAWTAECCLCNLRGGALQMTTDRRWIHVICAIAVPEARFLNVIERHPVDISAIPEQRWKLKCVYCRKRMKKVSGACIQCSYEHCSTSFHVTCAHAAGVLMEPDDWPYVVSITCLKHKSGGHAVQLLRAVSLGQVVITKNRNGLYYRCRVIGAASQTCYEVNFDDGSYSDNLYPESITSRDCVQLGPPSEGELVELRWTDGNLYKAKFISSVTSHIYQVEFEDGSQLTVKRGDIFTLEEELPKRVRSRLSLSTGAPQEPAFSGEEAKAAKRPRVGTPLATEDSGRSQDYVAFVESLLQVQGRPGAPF
GRK7: Rhodopsin kinase GRK7 (GRK7, Homo sapiens, UniProt Q8WTQ7)
Sequence of UniProt Q8WTQ7 (whole entry, looked up): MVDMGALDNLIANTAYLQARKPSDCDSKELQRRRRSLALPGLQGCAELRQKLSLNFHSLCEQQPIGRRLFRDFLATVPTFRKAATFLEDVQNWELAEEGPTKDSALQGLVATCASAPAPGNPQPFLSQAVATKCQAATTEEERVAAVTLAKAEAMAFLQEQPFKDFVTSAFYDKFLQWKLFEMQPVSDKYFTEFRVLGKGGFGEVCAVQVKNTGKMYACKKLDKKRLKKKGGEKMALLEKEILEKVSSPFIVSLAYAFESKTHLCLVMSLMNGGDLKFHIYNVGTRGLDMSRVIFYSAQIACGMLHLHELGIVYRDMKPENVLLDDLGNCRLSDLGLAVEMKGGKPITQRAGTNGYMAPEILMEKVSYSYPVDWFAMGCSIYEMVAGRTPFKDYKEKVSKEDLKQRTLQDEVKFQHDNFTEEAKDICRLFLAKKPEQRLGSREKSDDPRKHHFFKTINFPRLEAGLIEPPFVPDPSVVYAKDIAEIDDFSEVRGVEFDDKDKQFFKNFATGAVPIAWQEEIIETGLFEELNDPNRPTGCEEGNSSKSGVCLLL

SMILES | target | test | conditions | how to read | remaining activity [%]
O=C(NC1CCC1)c1ccc2nc(-c3cccc(NS(=O)(=O)NCCN4CCCCC4)c3)cn2c1 | TNNI3K (Homo sapiens, UniProt Q59H18) | enzyme activity | 10 µM | – | 97
COc1cc(-c2cncc3c2CN(C)Cc2cc(N4CCNCC4)ccc2-3)cc(OC)c1OC | EPHB4 | kinase activity | 1 µM, human enzyme, added: ATP 10 µM | relative to: DMSO control | 101
C[C@@H](Oc1ccc(S(C)(=O)=O)cc1C(=O)N1C[C@@H]2C[C@]2(c2cc(C(F)(F)F)on2)C1)C(F)(F)F | SLC6A9 (Homo sapiens, UniProt P48067, L476T) | glycine uptake, inhibitor, [3H]glycine uptake | 0.0001 µM, L422T mutant, log concentration -1, added: [3H]glycine | relative to: no inhibitor | 82.2
N[C@@H]1CC[C@@H](c2ccc(Cl)c(Cl)c2)c2ccccc21 | SLC6A3 (Homo sapiens, UniProt Q01959, S422A) | dopamine uptake | 0.001 µM, 0.03333 h, S422A mutant, added: [3H]dopamine | relative to: no inhibitor | 106
COc1cc(N2CCN(C)CC2)ccc1Nc1nc(N)n(C(=O)NCc2c(Cl)cccc2Cl)n1 | MARK3 (Homo sapiens, UniProt P27448) | enzyme activity | 10 µM | relative to: control | 2.5
Fc1ccc(-c2nc3cc(F)ccn3c2-c2ccncc2)cc1 | CSNK1A1 | kinase activity, ADP-Glo | 1.176 µM | relative to: untreated | 25.9
COc1cc(N2CCN(C)CC2)ccc1Nc1nc(N)n(C(=O)NCc2ccccc2S(=O)(=O)C(C)C)n1 | STK17B (Homo sapiens, UniProt O94768) | enzyme activity | 10 µM | relative to: control | 1.6
Cc1cnc(NC2CCOCC2)nc1-n1cnc(C(=O)NC(CN)c2cc(F)cc(Cl)c2)c1 (stereo not shown) | SRC (Homo sapiens, UniProt P12931) | kinase activity, radiometric | 1 µM | – | 94
CCOc1cc(N2CCN(C)CC2)ccc1Nc1nc(N)n(C(=O)NCc2ccccc2S(=O)(=O)C(C)C)n1 | Insulin receptor (INSR, Homo sapiens, UniProt P06213) | enzyme activity | 10 µM | relative to: control | 0.05
C=CC(=O)N1CCC[C@@H](n2nc(-c3ccc(Oc4ccccc4)cc3)c3c(N)ncnc32)C1 | EPHB4 | – | 1 µM | – | 149
COc1ccc(Cl)cc1-c1cc(=O)[nH]c(=S)n1CC(N)=O | MPO | – | 1.25 µM, 0.1 h | – | 46.3
CN(C)CC#Cc1ccc2[nH]c3c(c2c1)-c1nc(N)ncc1CCC3 | TAOK1 | kinase activity, inhibitor, radiometric | 1 µM, added: ATP at Km | – | 72
O=C(O)c1ccc(Nc2ncc3c(n2)-c2ccc(Cl)cc2C(c2c(F)cccc2F)=NC3)cc1 | human IKKß(h) | kinase activity | 1 µM | – | 99
C[C@H]1[C@H](OC(=O)CCC(=O)O)O[C@@H]2O[C@@]3(C)CC[C@H]4[C@H](C)CC[C@@H]1[C@@]24OO3 | Non-structural polyprotein pORF1, helicase domain (Hepatitis E virus genotype 1, UniProt P33424) | ATPase activity, inhibitor, colorimetric | 19.5 µM, preincubation 30 min, added: ATP 400 µM | relative to: untreated | 84.4
O=C1NC(=O)/C(=C/c2ccc(-c3ccc(F)cc3O)o2)S1 | TAOK1 | enzyme activity | 10 µM | – | 18
C/C(CC(O)(C(F)(F)F)C(F)(F)F)=N/Nc1ccc([N+](=O)[O-])cc1[N+](=O)[O-] | KDM4B | – | concentration not given | – | 56
Cc1cc(Nc2cc(N3CCN(C)CC3)nc(Sc3ccc(NC(=O)C4CC4)cc3)n2)[nH]n1 | GRK7 | kinase activity, KinaseProfiler | 0.03 µM, species human | relative to: control | 126
CC(C)C(=O)Nc1n[nH]c2cc(-c3cccc(NS(=O)(=O)C4CC4)c3)ccc12 | PIP5K1C (Homo sapiens, UniProt O60331) | ADP-Glo | 3.33 µM | relative to: DMSO | 52
CC(C)OCCn1c(=S)[nH]c(=O)c2[nH]ccc21 | MPO | LDL lipid peroxidation, inhibitor, cholesteryl ester hydroperoxide | 0.0046 µM | – | 106
CNc1ncc2c(/C=C/C(=O)N3CCC(OC)CC3)nn(Cc3cccc(C(F)(F)F)c3)c2n1 | GRK7 | kinase activity, inhibitor | 1 µM | relative to: untreated control | 107
Fc1ccc(-c2nn3cc(F)ccc3c2-c2ccncc2)cc1 | CSNK1A1 | kinase activity, ADP-Glo | 1.176 µM | relative to: untreated | 15.8
COC1CC(OC(=O)c2ccc([N+](=O)[O-])cc2)C(OC(=O)c2ccc([N+](=O)[O-])cc2)C(C)O1 (stereo not shown) | KDM4B | – | concentration not given | – | 64
COc1cc(Nc2ncc3c(n2)-c2ccc(Cl)cc2C(c2c(F)cccc2OC)=NC3)ccc1C(=O)O | PTK6 | kinase activity | 1 µM | – | 93
COc1cc(N2CCN(C)CC2)ccc1Nc1nc(N)n(C(=S)NCc2c(Cl)cccc2Cl)n1 | DYRK2 (Homo sapiens, UniProt Q92630) | enzyme activity | 10 µM | relative to: control | 17
COc1cc(F)ccc1-c1ncnc(Nc2cccc(C[S@](C)(=N)=O)c2)n1 | PRKCD (Homo sapiens, UniProt Q05655) | kinase activity | 10 µM, added: 10 µM ATP | – | 96

Repeated from above:
SMILES | target | test | conditions | how to read | remaining activity [%]
COC1CC(OC(=O)c2ccc([N+](=O)[O-])cc2)C(OC(=O)c2ccc([N+](=O)[O-])cc2)C(C)O1 (stereo not shown) | KDM4B | – | concentration not given | – | 64
CN(C)CC#Cc1ccc2[nH]c3c(c2c1)-c1nc(N)ncc1CCC3 | TAOK1 | kinase activity, inhibitor, radiometric | 1 µM, added: ATP at Km | – | 72
C/C(CC(O)(C(F)(F)F)C(F)(F)F)=N/Nc1ccc([N+](=O)[O-])cc1[N+](=O)[O-] | KDM4B | – | concentration not given | – | 56
COc1cc(-c2cncc3c2CN(C)Cc2cc(N4CCNCC4)ccc2-3)cc(OC)c1OC | EPHB4 | kinase activity | 1 µM, human enzyme, added: ATP 10 µM | relative to: DMSO control | 101
